Measurements of several laboratories.
A part holds a random share of what one study measured. Changes are numbered by the printed parent chain.

Block 1
Target: ABI1, truncated, D143A, DHFR fusion (Arabidopsis thaliana)
Technique: DHFR PCA, deep sequencing
Medium: yeast
Setting: methotrexate growth selection, single substitutions
Added: (+)-ABA 0.0091 µM
Baseline: wild-type fitted maximum
Direction: higher = stronger binding
Starting sequence: PYL1, truncated, DHFR fusion (Arabidopsis thaliana); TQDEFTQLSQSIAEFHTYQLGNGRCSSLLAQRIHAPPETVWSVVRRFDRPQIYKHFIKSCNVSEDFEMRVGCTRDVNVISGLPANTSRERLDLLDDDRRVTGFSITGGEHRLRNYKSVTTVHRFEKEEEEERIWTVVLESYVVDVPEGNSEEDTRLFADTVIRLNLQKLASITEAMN
| Variant | relative binding score [%] |
| --- | --- |
| T73D | 0.452 |
| T73E | 26.4 |
| V145D | -1.99 |
| S150N | 25.1 |
| F15R | 1.61 |
| G148M | -5.09 |
| V44M | 2.18 |
| E151N | 7.19 |
| R88Q | 24.4 |
| R74K | -0.268 |
| T154W | -5.6 |
| N85E | 41.5 |
| V145S | -3.52 |
| H16V | 2.25 |
| E4W | 16.7 |

Block 2
Target: UBE2L6 UBC core domain (UniProt O14933)
Technique: yeast two-hybrid
Medium: yeast
Setting: mostly zero background
Baseline: not given
Direction: higher = stronger interaction
B1: MEX3B RING domain (UniProt Q6ZN04); chain SGLRRKGSRDCSVCFESEVIAALVPCGHNLFCMECANRICEKSEPECPVCHTAVTQAIRIF
B2: RLIM RING domain (UniProt Q9NVW2); chain SFGENDALKTCSVCITEYTEGNKLRKLPCSHEYHVHCIDRWLSENSTCPICRRAVLASGNRE
B3: TRIM60 RING domain (UniProt Q495X7); chain ALVNLQEESSCPICLEYLKDPVTINCGHNFCRSCLSVSWKDLDDTFPCPVCRFCFPYKSFRR
B4: RNF166 RING domain (UniProt Q96A37); chain GDSGLEAQYTCPICLEVYHRPVAIGSCGHTFCGECLQPCLQVPSPLCPLCRLPFDPKKVDK
B5: TRIM22 RING domain (UniProt Q8IYM9); chain VKVDIEKEVTCPICLELLTEPLSLDCGHSFCQACITAKIKESVIISRGESSCPVCQTRFQPGNLRP
B6: RNF183 RING domain (UniProt Q96D59); chain EQQGRELEAECPVCWNPFNNTFHTPKMLDCCHSFCVECLAHLSLVTPARRRLLCPLCRQPTVLASGQP
Residues (chain): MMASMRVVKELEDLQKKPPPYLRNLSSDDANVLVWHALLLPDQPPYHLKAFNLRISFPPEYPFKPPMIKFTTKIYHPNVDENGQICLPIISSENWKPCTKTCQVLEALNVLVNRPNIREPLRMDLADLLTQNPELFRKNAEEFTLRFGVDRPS
| Sequence | lacZ reporter activity |
| --- | --- |
| AEADPLGRFTCPVCLEVYEKPVQVPCGHVFCSACLQECLKPKKPVCGVCRSALAPGVRAV (RNF114 RING domain (UniProt Q9Y508)) | 0 |
| B1 (MEX3B RING domain) | 0 |
| B2 (RLIM RING domain) | 0 |
| KPDKMEETLTCIICQDLLHDCVSLQPCMHTFCAACYSGWMERSSLCPTCRCPVERICKNH (CHFR RING domain (UniProt Q96EP1)) | 0 |
| B3 (TRIM60 RING domain) | 0 |
| MNDVLENELQCIICSEYFIEAVTLNCAHSFCSYCINEWMKRKIECPICRKDIKSKTYSL (RNF8 RING domain (UniProt O76064)) | 0 |
| B4 (RNF166 RING domain) | 0 |
| YPEEVDDDLICHICLQALLDPLDTPCGHTYCTLCLTNFLVEKDFCPMDRKPLVLQHCKK (LNX1 RING domain (UniProt Q8TBB1)) | 0 |
| B5 (TRIM22 RING domain) | 0 |
| B6 (RNF183 RING domain) | 0 |

Block 3
Target: HLF, bZIP domain (human)
Technique: DHFR protein complementation
Medium: yeast
Setting: single substitutions, most at no-binding floor
Baseline: wild-type JUN-FOS pair
Direction: higher = stronger binding
Starting sequence: JUN, bZIP domain (human); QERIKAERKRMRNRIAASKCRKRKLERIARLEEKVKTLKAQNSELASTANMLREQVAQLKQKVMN; partner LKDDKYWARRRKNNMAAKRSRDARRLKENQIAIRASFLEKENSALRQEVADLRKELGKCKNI
| Variant | binding fitness [natural log] |
| --- | --- |
| E32I | -1.28 |
| V35K | -1.44 |
| T48D | -1.5 |
| T48Q | -1.45 |
| R30H | -1.38 |
| A46P | -1.57 |
| L38G | -1.5 |
| A40E | -1.3 |
| A29L | -1.38 |
| S43V | -1.31 |
| A57M | -1.5 |
| A29G | -1.32 |
| N42T | -1.46 |
| L45K | -1.43 |
| Q41M | -1.43 |
| L52E | -1.56 |
| K34V | -1.49 |
| M51Q | -1.38 |
| E44H | -1.47 |
| K39W | -1.43 |

Block 4
Target: CCNA2, cyclin fold, Cln2 fusion (human)
Technique: yeast growth competition, sequencing
Medium: yeast
Setting: strong parent motif
Baseline: not given
Direction: higher = stronger binding
Starting sequence: SCAPER docking peptide (human); SNARRSLNFGGST; partner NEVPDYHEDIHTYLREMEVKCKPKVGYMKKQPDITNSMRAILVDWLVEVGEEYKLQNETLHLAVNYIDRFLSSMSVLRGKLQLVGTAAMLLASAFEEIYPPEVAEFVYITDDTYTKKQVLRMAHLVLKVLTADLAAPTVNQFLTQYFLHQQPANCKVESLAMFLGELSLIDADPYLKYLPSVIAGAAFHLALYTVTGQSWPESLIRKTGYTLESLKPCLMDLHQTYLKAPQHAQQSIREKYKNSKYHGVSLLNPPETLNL
| Variant | normalised enrichment score |
| --- | --- |
| SNADRSLNFGGST [R4D] | 0.162 |
| SNARRSLNSGGST [F9S] | 0.583 |
| SNARRSLNFGGKT [S12K] | 6.17 |
| SNSRRSLNFGGST [A3S] | 4.38 |
| SNARRSLYFGGST [N8Y] | 5.76 |
| SNARRSLNMGGST [F9M] | 3.62 |
| SNARRMLNFGGST [S6M] | 6.57 |
| PNARRSLNFGGST [S1P] | 6.5 |
| SNHRRSLNFGGST [A3H] | 1.68 |
| SNARRSLNFGRST [G11R] | 5.59 |
| SNYRRSLNFGGST [A3Y] | 3.87 |
| SNARRCLNFGGST [S6C] | 6.2 |
| SNARRSLNNGGST [F9N] | -0.3 |
| SWARRSLNFGGST [N2W] | 4.74 |
| SNAHRSLNFGGST [R4H] | 2.83 |
| SNARRSLNFGGSQ [T13Q] | 6.17 |
| SNARRSLDFGGST [N8D] | 5.78 |
| SNARRSLNFGGYT [S12Y] | 6.26 |
| SNARRSLNFGDST [G11D] | 6.62 |

Block 5
Target: Sal-like protein 4, full length isoform B (SALL4, Homo sapiens, UniProt Q9UJQ4-2, residues 1-616)
Technique: universal PBM
Molecule type: double-stranded DNA, one strand shown
Medium: in vitro
Tested at: not given
Setting: 8-mer, flanks averaged, mean of replicates
Direction: higher = stronger binding
| Sequence | E-score |
| --- | --- |
| AGATTCGC | 0.0374 |
| ACTTCACC | -0.00168 |
| CAGGTCCG | -0.312 |
| CCAGTGCG | -0.392 |
| GATAGCCA | -0.216 |
| GTGTTAAA | 0.193 |
| GGGCACCA | -0.289 |
| CCCACAAG | -0.213 |
| AGAAGATG | 0.139 |
| CACAACAG | -0.0169 |
| AAACATAT | 0.356 |
| TCGTCACA | 0.0415 |
| CAAGGCAC | -0.233 |
| CGCTCATC | -0.0938 |
| ATTACAGA | 0.281 |
| GACACCCC | -0.303 |
| ATTCCTAA | 0.0722 |
